Results pooled from the literature.
Lines come from different studies, so protocols differ. Square brackets hold non-standard residues; d marks the D form. Where no end group is shown, it is not given here. Ends that are not written are not given here. No end group written: not given here.
B1: TNNC2 (Gallus gallus, UniProt P02588); sequence looked up; chain MASMTDQQAEARAFLSEEMIAEFKAAFDMFDADGGGDISTKELGTVMRMLGQNPTKEELDAIIEEVDEDGSGTIDFEEFLVMMVRQMKEDAKGKSEEELANCFRIFDKNADGFIDIEELGEILRATGEHVTEEDIEDLMKDSDKNNDGRIDFDEFLKMMEGVQ
B2: MARK1 682-795 K761S/R764S (Homo sapiens, UniProt Q9P0L2); sequence looked up; chain GEPKERDKEEGKDSKPRSLRFTWSMKTTSSMDPNDMMREIRKVLDANNCDYEQKERFLLFCVHGDARQDSLVQWEMEVCSLPSLSLNGVRFKRISGTSIAFKNIASKIANELKL
B3: Nup98 732-880 (Mus musculus, UniProt Q6PFD9); sequence looked up; chain AGIVLTKVGYYTIPSMDDLAKITNEKGECIVSDFTIGRKGYGSIYFEGDVNLTNLNLDDIVHIRRKEVIVYVDDNQKPPVGEGLNRKAEVTLDGVWPTDKTSRCLIKSPDRLADINYEGRLEAVSRKQGAQFKEYRPETGSWVFKVSHF
B4: CYBA (Homo sapiens, UniProt P13498); chain MGQIEWAMWANEQALASGLILITGGIVATAGRFTQWYFGAYSIVAGVFVCLLEYPRGKRKKGSTMERWGQKYMTAVVKLFGPFTRNYYVRAVLHLLLSVPAGFLLATILGTACLAIASGIYLLAAVRGEQWTPIEPKPRERPQIGGTIKQPPSNPPPRPPAEARKKPSEEEAAVAAGGPPGGPQVNPIPVTDEVV
B5: BAK1 26-225 Y100A/Y124A (Arabidopsis thaliana, UniProt Q94F62); sequence looked up; chain NAEGDALSALKNSLADPNKVLQSWDATLVTPCTWFHVTCNSDNSVTRVDLGNANLSGQLVMQLGQLPNLQYLELASNNITGTIPEQLGNLTELVSLDLALNNLSGPIPSTLGRLKKLRFLRLNNNSLSGEIPRSLTAVLTLQVLDLSNNPLTGDIPVNGSFSLFTPISFANTKLTPLPASPPPPISPTPPSPAGSNRITG
B6: RAD51 (Homo sapiens, UniProt Q06609); sequence looked up; chain MAMQMQLEANADTSVEEESFGPQPISRLEQCGINANDVKKLEEAGFHTVEAVAYAPKKELINIKGISEAKADKILAEAAKLVPMGFTTATEFHQRRSEIIQITTGSKELDKLLQGGIETGSITEMFGEFRTGKTQICHTLAVTCQLPIDRGGGEGKAMYIDTEGTFRPERLLAVAERYGLSGSDVLDNVAYARAFNTDHQTQLLYQASAMMVESRYALLIVDSATALYRTDYSGRGELSARQMHLARFLRMLLRLADEFGVAVVITNQVVAQVDGAAMFAADPKKPIGGNIIAHASTTRLYLRKGRGETRICKIYDSPCLPEAEAMFAINADGVGDAKD
B7: UGT1A9 (Homo sapiens, UniProt O60656); chain GKLLVVPMDGSHWFTMRSVVEKLILRGHEVVVVMPEVSWQLGRSLNCTVKTYSTSYTLEDLDREFKAFAHAQWKAQVRSIYSLLMGSYNDIFDLFFSNCRSLFKDKKLVEYLKESSFDAVFLDPFDNCGLIVAKYFSLPSVVFARGILCHYLEEGAQCPAPLSYVPRILLGFSDAMTFKERVRNHIMHLEEHLLCHRFFKNALEIASEILQTPVTEYDLYSHTSIWLLRTDFVLDYPKPVMPNMIFIGGINCHQGKPLPMEFEAYINASGEHGIVVFSLGSMVSEIPEKKAMAIADALGKIPQTVLWRYTGTRPSNLANNTILVKWLPQNDLLGHPMTRAFITHAGSHGVYESICNGVPMVMMPLFGDQMDNAKRMETKGAGVTLNVLEMTSEDLENALKAVINDKSYKENIMRLSSLHKDRPVEPLDLAVFWVEFVMRHKGAPHLRPAAHDLTWYQYHSLDVIGFLLAVVLTVAFITFKCCAYGYRKCLGKKGRVKKAHKSKTH
B8: RRP6 128-634 (Saccharomyces cerevisiae, UniProt Q12149); sequence looked up; chain RVEKPQLKFKSPIDNSESHPFIPLLKEKPNALKPLSESLRLVDDDENNPSHYPHPYEYEIDHQEYSPEILQIREEIPSKSWDDSVPIWVDTSTELESMLEDLKNTKEIAVDLEHHDYRSYYGIVCLMQISTRERDYLVDTLKLRENLHILNEVFTNPSIVKVFHGAFMDIIWLQRDLGLYVVGLFDTYHASKAIGLPRHSLAYLLENFANFKTSKKYQLADWRIRPLSKPMTAYARADTHFLLNIYDQLRNKLIESNKLAGVLYESRNVAKRRFEYSKYRPLTPSSEVYSPIEKESPWKILMYQYNIPPEREVLVRELYQWRDLIARRDDESPRFVMPNQLLAALVAYTPTDVIGVVSLTNGVTEHVRQNAKLLANLIRDALRNIKNTNEEATPIPSSETKADGILLETISVPQIRDVMERFSVLCNSNISKSRAKPVTNSSILLGKILPREEHDIAYSKDGLPNKVKTEDIRIRAQNFKSALANLEDIIFEIEKPLVVPVKLEEIK
B9: PAT1 422-796 S456E/S457E (Saccharomyces cerevisiae, UniProt P25644); chain KDVTDSLTNVDLASSGSSSTGSSAAAVASKQRRREEYAFNNGNGATNLNKSGGKKFILELIETVYEEILDLEANLRNGQQTDSTAMWEALHIDDSSYDVNPFISMLSFDKGIKIMPRIFNFLDKQQKLKILQKIFNELSHLQIIILSSYKTTPKPTLTQLKKVDLFQMIILKIIVSFLSNNSNFIEIMGLLLQLIRNNNVSFLTTSKIGLNLITILISRAALIKQDSSRSNILSSPEISTWNEIYDKLFTSLESKIQLIFPPREYNDHIMRLQNDKFMDEAYIWQFLASLALSGKLNHQRIIIDEVRDEIFATINEAETLQKKEKELSVLPQRSQELDTELKSIIYNKEKLYQDLNLFLNVMGLVYRDGEISELK
Sequence of UniProt P40368 (whole entry, unmodified, looked up): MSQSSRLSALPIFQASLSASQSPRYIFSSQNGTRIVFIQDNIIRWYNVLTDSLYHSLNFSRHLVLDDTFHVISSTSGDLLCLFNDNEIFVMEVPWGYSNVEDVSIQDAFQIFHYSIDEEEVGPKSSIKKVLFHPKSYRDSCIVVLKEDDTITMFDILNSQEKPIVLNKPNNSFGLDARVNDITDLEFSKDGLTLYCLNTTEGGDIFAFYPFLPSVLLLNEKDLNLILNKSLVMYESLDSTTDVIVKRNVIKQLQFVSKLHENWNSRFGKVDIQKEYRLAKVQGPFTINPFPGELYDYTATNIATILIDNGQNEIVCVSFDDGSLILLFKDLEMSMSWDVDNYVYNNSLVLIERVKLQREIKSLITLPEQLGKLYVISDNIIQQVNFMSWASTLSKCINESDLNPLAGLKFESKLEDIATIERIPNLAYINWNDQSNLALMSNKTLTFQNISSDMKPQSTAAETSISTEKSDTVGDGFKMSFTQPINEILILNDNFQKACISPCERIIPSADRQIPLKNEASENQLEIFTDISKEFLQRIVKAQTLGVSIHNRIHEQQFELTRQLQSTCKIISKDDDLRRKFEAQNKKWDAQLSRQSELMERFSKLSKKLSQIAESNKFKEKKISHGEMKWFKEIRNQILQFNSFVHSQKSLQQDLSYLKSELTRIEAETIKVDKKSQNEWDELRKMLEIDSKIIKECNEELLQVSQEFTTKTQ
Sequence of UniProt O55236 (whole entry, unmodified, looked up): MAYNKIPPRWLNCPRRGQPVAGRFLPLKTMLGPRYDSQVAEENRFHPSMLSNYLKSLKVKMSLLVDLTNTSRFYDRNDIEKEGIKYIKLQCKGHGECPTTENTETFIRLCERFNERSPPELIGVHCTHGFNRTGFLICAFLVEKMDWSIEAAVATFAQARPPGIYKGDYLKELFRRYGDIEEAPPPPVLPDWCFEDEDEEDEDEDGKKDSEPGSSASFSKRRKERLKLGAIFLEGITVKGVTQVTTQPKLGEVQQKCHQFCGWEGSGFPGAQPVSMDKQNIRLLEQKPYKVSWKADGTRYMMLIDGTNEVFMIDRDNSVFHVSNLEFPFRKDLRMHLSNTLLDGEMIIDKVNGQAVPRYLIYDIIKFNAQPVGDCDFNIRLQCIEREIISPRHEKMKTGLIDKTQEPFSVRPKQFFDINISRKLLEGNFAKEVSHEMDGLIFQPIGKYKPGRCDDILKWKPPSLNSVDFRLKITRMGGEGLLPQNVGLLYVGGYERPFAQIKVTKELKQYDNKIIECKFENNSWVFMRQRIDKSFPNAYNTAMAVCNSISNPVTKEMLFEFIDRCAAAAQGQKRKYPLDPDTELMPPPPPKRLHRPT
Sequence of UniProt P29375 (whole entry, looked up): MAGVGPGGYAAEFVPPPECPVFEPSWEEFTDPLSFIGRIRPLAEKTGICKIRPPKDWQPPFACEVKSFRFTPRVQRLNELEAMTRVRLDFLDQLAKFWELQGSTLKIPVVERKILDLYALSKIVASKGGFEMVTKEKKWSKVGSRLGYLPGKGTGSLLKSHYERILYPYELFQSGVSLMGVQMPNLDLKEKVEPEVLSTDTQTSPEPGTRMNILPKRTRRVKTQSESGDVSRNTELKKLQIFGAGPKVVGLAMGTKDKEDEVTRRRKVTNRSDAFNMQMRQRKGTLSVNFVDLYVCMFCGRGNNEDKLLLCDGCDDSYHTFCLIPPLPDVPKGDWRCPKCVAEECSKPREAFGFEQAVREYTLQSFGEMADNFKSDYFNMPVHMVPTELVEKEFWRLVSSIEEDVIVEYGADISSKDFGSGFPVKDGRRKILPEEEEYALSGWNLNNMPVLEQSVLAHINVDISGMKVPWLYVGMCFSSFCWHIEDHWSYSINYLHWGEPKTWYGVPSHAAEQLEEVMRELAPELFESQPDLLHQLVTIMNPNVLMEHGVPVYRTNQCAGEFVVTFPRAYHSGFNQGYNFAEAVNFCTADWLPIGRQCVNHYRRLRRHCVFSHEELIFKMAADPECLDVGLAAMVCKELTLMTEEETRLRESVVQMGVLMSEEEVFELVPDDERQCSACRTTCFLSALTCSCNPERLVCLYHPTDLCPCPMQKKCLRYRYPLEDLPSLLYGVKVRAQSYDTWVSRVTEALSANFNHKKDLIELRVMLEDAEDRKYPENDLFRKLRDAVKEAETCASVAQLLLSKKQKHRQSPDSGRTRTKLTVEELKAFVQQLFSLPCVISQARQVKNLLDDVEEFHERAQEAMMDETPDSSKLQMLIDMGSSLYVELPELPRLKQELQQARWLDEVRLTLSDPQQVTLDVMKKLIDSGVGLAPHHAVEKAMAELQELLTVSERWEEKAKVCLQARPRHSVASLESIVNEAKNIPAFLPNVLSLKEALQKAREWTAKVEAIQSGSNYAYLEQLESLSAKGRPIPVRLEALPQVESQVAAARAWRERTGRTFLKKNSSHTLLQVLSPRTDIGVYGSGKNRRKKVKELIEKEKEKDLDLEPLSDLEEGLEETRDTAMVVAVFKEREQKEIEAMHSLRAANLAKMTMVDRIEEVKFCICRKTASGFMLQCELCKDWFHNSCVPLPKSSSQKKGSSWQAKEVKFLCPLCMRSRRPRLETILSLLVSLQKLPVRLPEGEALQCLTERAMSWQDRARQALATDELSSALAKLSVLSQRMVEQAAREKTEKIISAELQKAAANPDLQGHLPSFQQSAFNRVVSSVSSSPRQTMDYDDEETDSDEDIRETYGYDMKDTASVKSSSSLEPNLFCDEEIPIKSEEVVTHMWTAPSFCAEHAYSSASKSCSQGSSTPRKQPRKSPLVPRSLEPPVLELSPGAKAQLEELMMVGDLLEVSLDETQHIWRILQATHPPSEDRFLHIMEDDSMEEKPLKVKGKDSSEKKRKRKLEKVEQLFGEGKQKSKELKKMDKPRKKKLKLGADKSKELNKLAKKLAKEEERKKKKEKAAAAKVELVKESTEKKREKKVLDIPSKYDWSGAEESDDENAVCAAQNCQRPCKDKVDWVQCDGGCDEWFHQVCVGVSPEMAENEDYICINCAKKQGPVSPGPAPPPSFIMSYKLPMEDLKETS
Sequence of UniProt P46948 (whole entry, looked up): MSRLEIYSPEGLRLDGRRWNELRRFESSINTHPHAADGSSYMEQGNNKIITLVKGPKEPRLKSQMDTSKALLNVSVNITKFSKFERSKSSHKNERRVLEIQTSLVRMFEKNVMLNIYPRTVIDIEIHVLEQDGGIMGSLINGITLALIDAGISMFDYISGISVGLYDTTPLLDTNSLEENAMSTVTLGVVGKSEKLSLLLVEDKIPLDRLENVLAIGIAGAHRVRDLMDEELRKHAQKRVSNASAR
Sequence of UniProt P04839 (whole entry, looked up): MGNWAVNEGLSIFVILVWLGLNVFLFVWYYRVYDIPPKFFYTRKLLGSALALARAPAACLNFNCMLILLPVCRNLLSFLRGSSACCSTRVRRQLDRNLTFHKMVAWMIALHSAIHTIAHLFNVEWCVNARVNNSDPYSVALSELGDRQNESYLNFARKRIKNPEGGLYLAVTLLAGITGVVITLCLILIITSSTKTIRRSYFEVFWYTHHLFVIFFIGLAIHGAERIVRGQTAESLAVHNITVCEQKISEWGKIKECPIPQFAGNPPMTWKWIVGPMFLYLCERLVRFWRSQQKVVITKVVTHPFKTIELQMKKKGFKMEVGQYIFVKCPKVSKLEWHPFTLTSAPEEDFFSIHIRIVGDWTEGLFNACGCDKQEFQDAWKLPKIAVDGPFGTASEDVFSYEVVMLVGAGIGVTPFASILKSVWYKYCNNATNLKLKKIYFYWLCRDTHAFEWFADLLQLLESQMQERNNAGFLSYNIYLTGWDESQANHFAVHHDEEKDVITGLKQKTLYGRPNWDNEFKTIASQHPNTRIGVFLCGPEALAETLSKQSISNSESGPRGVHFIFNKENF
Sequence of UniProt P53890 (whole entry, looked up): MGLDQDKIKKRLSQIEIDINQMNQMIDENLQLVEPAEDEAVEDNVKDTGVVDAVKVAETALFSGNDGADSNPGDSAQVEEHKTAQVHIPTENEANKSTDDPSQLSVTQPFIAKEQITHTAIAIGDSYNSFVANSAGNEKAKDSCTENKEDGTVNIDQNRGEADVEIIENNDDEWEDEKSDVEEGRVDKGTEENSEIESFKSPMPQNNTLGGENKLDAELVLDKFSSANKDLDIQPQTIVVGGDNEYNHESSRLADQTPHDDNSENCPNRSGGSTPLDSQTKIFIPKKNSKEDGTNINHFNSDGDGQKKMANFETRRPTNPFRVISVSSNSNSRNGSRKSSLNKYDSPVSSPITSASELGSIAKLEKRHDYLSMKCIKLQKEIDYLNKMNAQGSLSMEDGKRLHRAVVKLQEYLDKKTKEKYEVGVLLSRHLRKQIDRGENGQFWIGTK
Sequence of UniProt P48787 (whole entry, unmodified, looked up): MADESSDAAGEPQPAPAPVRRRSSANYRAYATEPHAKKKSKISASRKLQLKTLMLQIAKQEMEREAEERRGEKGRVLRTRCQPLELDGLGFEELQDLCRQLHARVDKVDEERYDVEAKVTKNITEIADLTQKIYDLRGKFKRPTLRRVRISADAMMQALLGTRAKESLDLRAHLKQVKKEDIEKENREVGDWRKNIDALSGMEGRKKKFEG

Substance | target or system | test | system | setting | measurement | result
THBS1 fragment (Homo sapiens) (sequence not shown) | pad-2 fragment R298K/R299K (Caenorhabditis elegans) | SEC |  | with: GDP | binding | binds
{SUMO}-SSITKDMKGFKVVEVGLAMNTKKQIGDFFKNLNMAK (NUP159 1425-1460 (Saccharomyces cerevisiae, UniProt P40477); SUMO = SUMO protein tag (N-terminal fusion); sequence looked up) | NUP82 1-452 del172-176/D204A/F290A/Y295A/C396S (Saccharomyces cerevisiae, UniProt P40368) | SEC |  |  | binding | binds
ASSHLNK(Ac)GIK(Ac)QVYMSLPQ (GLUL 5-22 (Homo sapiens, UniProt P15104); also: biotinylated, place not given here; acetyl K11, acetyl K14; sequence looked up) | CRBN (Homo sapiens, UniProt Q96SW2) | pull-down | peptide |  | binding | binds
B1 (TNNC2) | Tnni3 29-192 (Mus musculus, UniProt P48787) | SEC |  |  | binding | binds
BNI5 (Saccharomyces cerevisiae, UniProt P53890) | Cdc11/Cdc12/Cdc3/Cdc10-GFP hetero-octamer (Saccharomyces cerevisiae) | negative-stain EM |  | KCl 45 mM, with: septins 50 nM | binding | binds
fluorescein-SPT[pS]PSY[pS]PTS (POLR2A CTD peptide consensus heptads, 11-aa; N-fluorescein, pS4, pS8; fluorescein = fluorescein label (fluorescent) on the peptide N-terminus; pS = N[C@@H](COP(=O)(O)O)C(=O)O) | Rngtt 227-567 R330A/K331A (Mus musculus, UniProt O55236) | fluorescence polarisation | peptide | pH 7.0, 23 °C | binding | binds
ARTKQC (Histone H3.1 2-6 (Homo sapiens, UniProt P68431)) | KDM5A 287-347 (Homo sapiens, UniProt P29375) | PI-SAMDI | peptide |  | binding | binds
B2 (MARK1 682-795 K761S/R764S) | MARK1 45-381 T215E (Homo sapiens, UniProt Q9P0L2) | crystal structure |  |  | binding | binds
B3 (Nup98 732-880) | NUP82 1-452 L393A/I397A/L402A/L405A/F410A/C396S (Saccharomyces cerevisiae, UniProt P40368) | SEC |  |  | binding | binds
B4 (CYBA) | CYBB mature, N-glycans, two hemes (Homo sapiens, UniProt P04839) | cryo-EM |  |  | binding | binds
B5 (BAK1 26-225 Y100A/Y124A) | HAESA/IDA HAESA ectodomain; IDA 15-621, hydroxyproline in IDA (Arabidopsis thaliana) | ITC |  | pH 5.0, 25 °C | binding | binds
GRRYVDMTSIFDFMLN (POL1 residues 1453-1468, GST fusion (Saccharomyces cerevisiae)) | PRI1/PRI2 PRI1 1-409, PRI2 49-513 del382-384 (Saccharomyces cerevisiae) | pull-down | peptide | 2 h, pH 7.0, 4 °C | binding | binds
TAKCAARFPTWL (designed peptide) | APBA1 PDZ-1 648-746 C654S/C742S (UniProt Q02410) | ELISA | peptide | 1 hour | binding | binds
B6 (RAD51) | BRCA1/BARD1 F133A/D135A/A136E (Homo sapiens) | pull-down |  | 5 µM, 30 min, 4 °C, KCl 150 mM, with: Flag-BRCA1-BARD1 0.5 µM | binding | binds
B7 (UGT1A9) | COc1ccc(-c2oc3cc(OC)ccc3c(=O)c2O)cc1 | steady-state kinetics |  | pH 7.4, 37 °C | Km | 0.19 µM
B8 (RRP6 128-634) | Exo9 core (Saccharomyces cerevisiae, UniProt P46948) | SEC |  |  | binding | binds
B9 (PAT1 422-796 S456E/S457E) | LSM1/LSM2/LSM3/LSM4/LSM5/LSM6/LSM7 heptamer (Saccharomyces cerevisiae) | pull-down |  |  | binding | binds
RBM8A fragment (Homo sapiens) (sequence not shown) | DCP2 (Homo sapiens, UniProt Q8IU60) | pull-down |  |  | binding | binds
